Measurements from different studies.
Numbers after ± are the reported error.

C=C(CC)C(=O)c1ccc(OCC(=O)NCCCCNC(=O)COc2ccc(C(=O)C(=C)CC)c(Cl)c2Cl)c(Cl)c1Cl
inhibition (glutathione S-transferase, human; enzyme activity; A549 cell lysate; 0.2 µM): ~70%

Cc1nn(-c2ccc(S(=O)(=O)N[C@@H](CO)CC(C)C)cc2)c2nn3nnnc3nc12
apoptotic cells (PC-3; AO/EB staining; 2 µM, 24 h): 13 ± 1.41%

CN(C)c1cc2ccccc2c(N)n1
IFN-γ protein level (LX-2; ELISA; supernatant; 20 µM, 24 h): increased

CC(=O)N[C@@H](CC(N)=O)C(=O)NCC(=O)N[C@@H](C)C(=O)N[C@@H](C)C(N)=O
rate constant k1 (Asn-Gly peptide isomerisation to succinimide; 1H NMR time course; pH 5.1, 55 °C): 0.00341 h⁻¹

COc1cc(CNC(=O)C[C@H](C)CCC=C(C)C)ccc1OCc1cn(-c2cccc(Cl)c2)nn1
growth (786-0; SRB; 10 µM, 48 h): 92.3%

COc1ccc(S(=O)(=O)NCc2c[nH]nc2-c2cccs2)cc1
parasitemia (Plasmodium vivax; reinvasion; 2, human, human red blood cells; 3× EC50, 20 h): 0%

CCCCC/C=C/C(=O)CCc1ccc(O)c(OC)c1
IC50 (mAb 6-AT6; antibody binding, indirect competitive ELISA; with: coating antigen 6-OVA): > 4 µg/mL

COc1cc(CNC(=O)C[C@H](C)CCC=C(C)C)ccc1OCc1cn(-c2ccccc2[N+](=O)[O-])nn1
growth (A549/ATCC; SRB; 10 µM, 48 h): 65.7%

CC(=O)N[C@@H](CC(N)=O)C(=O)NCC(=O)N[C@@H](CCCNC(=N)N)C(=O)N[C@@H](C)C(N)=O
rate constant k1 (Asn-Gly peptide isomerisation to succinimide; 1H NMR time course; pH 7.4, 28 °C): 0.0079 h⁻¹

COc1cc(CNC(=O)C[C@H](C)CCC=C(C)C)ccc1OCc1cn(-c2ccc(Cl)c(Cl)c2)nn1
growth (786-0; SRB; 10 µM, 48 h): 80.4%

C=C(CC)C(=O)c1ccc(OCC(=O)NCCNC(=O)COc2ccc(C(=O)C(=C)CC)c(Cl)c2Cl)c(Cl)c1Cl
inhibition (glutathione S-transferase, human; enzyme activity; SK-OV-3 cell lysate; 0.2 µM): ~35%

COc1cc(CNC(=O)C[C@H](C)CCC=C(C)C)ccc1OCc1cn(-c2ccccc2F)nn1
growth percent (MOLT-4 leukaemia cells; SRB; 10 µM, 48 h): 74.8%

COc1ccc(CC2COC(=O)C2Cc2ccc3c(c2)OCO3)cc1OC (mixture of isomers)
protein level (A2780cis; western blot, item: PUMA; IC50, 48 h; reference: 0 h): increased

COc1cc(CNC(=O)C[C@H](C)CCC=C(C)C)ccc1OCc1cn(-c2ccc(C#N)cc2)nn1
growth (MDA-MB-231/ATCC; SRB; 10 µM, 48 h): 81.4%

O=Cc1c(O)ccc2ccccc12
log2 fold change (HUVEC; RNA sequencing, item: CDCA7; 75 µM, 24 h; reference: DMSO): -2.91
